# Assay results of several laboratories.
# A part holds a random share of what one study measured.

# Series 1 — method: protein binding microarray; molecule type: double-stranded DNA, one strand shown; sample: in vitro; tested at: not given; relative to: not given; direction: higher = stronger binding
# Target: Histone acetyltransferase KAT6A, winged helix 2, GST fusion (KAT6A, Homo sapiens, UniProt Q92794, residues 85-181)
# Setting: 8-mer, flanks averaged, mean of 2 arrays, mostly near background
# Residues (chain): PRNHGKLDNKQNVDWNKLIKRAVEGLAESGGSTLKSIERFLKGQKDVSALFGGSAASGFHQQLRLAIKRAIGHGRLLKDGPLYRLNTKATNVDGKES
Oligonucleotide,E-score
ATGCCATC,0.0987
AAAGTGCT,-0.0208
ACCTGCCA,-0.0153
CGTGAATC,-0.022
CCAATCCA,0.0746
ATATAGGG,-0.136
ACGGATTA,-0.168
GGTCGCGA,0.255
AGTCAGAC,-0.139

# Series 2 — method: RNAcompete; molecule type: RNA; sample: in vitro; tested at: 20 nM; setting: 7-mer, probes averaged, single round; relative to: mean of 7-mers; direction: higher = stronger binding
# Target: PABPC1L2, full length, GST fusion (mouse, UniProt A0ABA7IW68)
# Target sequence (chain): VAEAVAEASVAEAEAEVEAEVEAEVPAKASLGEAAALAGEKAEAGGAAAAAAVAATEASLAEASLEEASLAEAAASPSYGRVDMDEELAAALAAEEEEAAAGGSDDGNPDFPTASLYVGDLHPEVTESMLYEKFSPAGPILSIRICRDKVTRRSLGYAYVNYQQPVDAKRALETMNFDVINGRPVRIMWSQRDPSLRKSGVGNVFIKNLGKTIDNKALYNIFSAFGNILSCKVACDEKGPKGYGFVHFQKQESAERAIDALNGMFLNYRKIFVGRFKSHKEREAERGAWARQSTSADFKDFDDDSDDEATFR
Oligonucleotide,7-mer Z-score
AAACGGG,1.01
UAAGGUG,0.0297
AGAAAUC,0.631
UGGCAUC,0.095
UUACUUA,-0.182

# Series 3 — method: aptamer microarray, sandwich; molecule type: DNA with 2'F-ANA; sample: in vitro; tested at: 200 nM; together with: Cy3 exosite-II aptamer, 400 nM; direction: higher = stronger binding; oligonucleotide: GGTTGGTGTGGTTGG
# Target: Prothrombin, mature alpha-thrombin (F2, Homo sapiens, UniProt P00734)
# Setting: whole 15-mer aptamer, many near background
Modification,mean fluorescence intensity [a.u.]
2'F-ANA at 1 6 8 11 12,317
2'F-ANA at 1 2 4 5 7 8 13 14,43.6
2'F-ANA at 1 2 7 8 13 14,99.6
2'F-ANA at 1 4 6 8 9 11 13,78.1
2'F-ANA at 1 4 6 7 8 10 11 13 14 15,45.7
2'F-ANA at 2 3 4 5 11 14,50
2'F-ANA at 1 2 3 4 5 6 9 11 12 13 14,48.5
2'F-ANA at 3 4 8 11 13 15,588
2'F-ANA at 1 4 8 12 13 15,282
2'F-ANA at 1 2 3 5 7 12 13 14 15,46

# Other studies, line by line
Substance,target,test,test system,setting,scale,endpoint,value
"PhoQ, residues 284 288 289 292 302 303 SSYNSA","PhoP, residues 12 14 15 18 19 TPLRH (Escherichia coli, UniProt P23836)","Sort-seq, measured: YFP reporter",E. coli,"PhoQ-PhoP variant library, together with: 10 µM Mg2+","relative to: high Mg2+ state, higher = stronger signaling",fold induction,0.697

# A few entries again (series 1):
Oligonucleotide,E-score
ACGGATTA,-0.168
